Published values from different studies.
Every numbered part comes from another study and shows a few of its results, in no order. Changes are numbered by the printed parent chain.

Sample 1
Target: Hepatocyte nuclear factor 3-beta, forkhead domain (FOXA2, Homo sapiens, UniProt Q9Y261, residues 142-269)
Technique: protein-binding microarray
Molecule type: hairpin DNA
Sample: in vitro
Tested at: not given
Notes: whole hairpin DNA, median over replicate spots
Reference: not given
Direction: higher = stronger binding
Residues (chain): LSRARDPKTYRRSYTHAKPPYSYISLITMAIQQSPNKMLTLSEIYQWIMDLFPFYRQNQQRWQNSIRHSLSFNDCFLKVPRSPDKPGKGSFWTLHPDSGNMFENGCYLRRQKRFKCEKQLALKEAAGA
Sequence | median fluorescence [a.u.]
GAGGCCATGCAAACACGGCCTCCTGGCCGTGTTTGCATGGCCTCACACTC (5mC at 16 28) | 3510
GAGGCCATGTATACAACGCCTCCTGGCGTTGTATACATGGCCTCACACTC | 3130
GAGGCCCGGTAACCAACGCCTCCTGGCGTTGGTTACCGGGCCTCACACTC (5mC at 37) | 3370
GAGGCCATGAAAACAACGCCTCCTGGCGTTGTTTTCATGGCCTCACACTC | 3150
GAGGCCATGTACACAACGCCTCCTGGCGTTGTGTACATGGCCTCACACTC | 3710
GAGGCCATGCAAAGAACGCCTCCTGGCGTTCTTTGCATGGCCTCACACTC (5mC at 31) | 3090
GAGGCCATGCCAACAACGCCTCCTGGCGTTGTTGGCATGGCCTCACACTC (5mC at 11) | 3260
GAGGCCATGTGAACAACGCCTCCTGGCGTTGTTCACATGGCCTCACACTC | 3250
GAGGCCATGTAAACAACGCCTCCTGGCGTTGTTTACATGGCCTCACACTC (5mC at 36) | 4600
GAGGCCATGTAACCAAGGCCTCCTGGCCTTGGTTACATGGCCTCACACTC (5mC at 28) | 3040
GAGGCCATGTAACCAACGCCTCCTGGCGTTGGTTACATGGCCTCACACTC (5mC at 17) | 3170
GAGGCCATGTAACCGACGCCTCCTGGCGTCGGTTACATGGCCTCACACTC (5mC at 14) | 3320
GAGGCCATGCAACGAACGCCTCCTGGCGTTCGTTGCATGGCCTCACACTC (5mC at 13 31) | 3320
GAGGCCACGCAAACAACGCCTCCTGGCGTTGTTTGCGTGGCCTCACACTC (5mC at 36) | 3660
GAGGCCCGGTAACCAACGCCTCCTGGCGTTGGTTACCGGGCCTCACACTC (5mC at 7) | 3370
GAGGCCATGCAAACACGGCCTCCTGGCCGTGTTTGCATGGCCTCACACTC (5mC at 16) | 3360
GAGGCCATGTCAACAACGCCTCCTGGCGTTGTTGACATGGCCTCACACTC | 4180
GAGGCCATGTAACCCGCGCCTCCTGGCGCGGGTTACATGGCCTCACACTC (5mC at 15) | 3300
GAGGCCATGTAAACAGCGCCTCCTGGCGCTGTTTACATGGCCTCACACTC | 4140

Sample 2
Target: CCNA2, cyclin fold, Cln2 fusion (human)
Technique: yeast growth competition, sequencing
Sample: yeast
Notes: strong parent motif
Reference: not given
Direction: higher = stronger binding
Starting sequence: PKN2 docking peptide (human); VSAVRKLDFSDTM
Substitution | normalised enrichment score
S10N | 5.03
F9A | -0.442
S10R | 5.3
T12W | 5.08
S2G | 5.68
K6W | 3.72
D11H | 4.61
D8A | 4.21
S2H | 5.19
K6P | -0.123
D11P | 5.26
D11T | 5.37
T12C | 4.74
A3G | 2.57
D11Q | 5.15
F9G | 0.477

Sample 3
Target: UBE2Z UBC core domain (UniProt Q9H832)
Technique: yeast two-hybrid
Sample: yeast
Notes: mostly zero background
Reference: not given
Direction: higher = stronger interaction
B1: ZNRF4 RING domain (UniProt Q8WWF5); chain VRTFTWHNDLCAICLDEYEEGDQLKILPCSHTYHCKCIDPWFSQAPRRSCPVCKQSVAATEDSF
B2: TRIM11 RING domain (UniProt Q96F44); chain LSTNLQEEATCAICLDYFTDPVMTDCGHNFCRECIRRCWGQPEGPYACPECRELSPQRNLRP
B3: TRIM41 RING domain (UniProt Q8WV44); chain PVQTLQEEAVCAICLDYFTDPVSIGCGHNFCRVCVTQLWGGEDEEDRDELDREEEEEDGEEE
B4: NFX1 RING domain (UniProt Q12986); chain IEQLTTEKYECMVCCELVRVTAPVWSCQSCYHVFHLNCIKKWARSPASQADGQSGWRCPACQNVSAHVPNTY
B5: ARIH2 RING domain (UniProt O95376); chain HVPTSHPPHHCAVCMQFVRKENLLSLACQHQFCRSCWEQHCSVLVKDGVGVGVSCMAQDCPLRTPEDFVF
B6: BFAR RING domain (UniProt Q9NZS9); chain GPQISVSEFSCHCCYDILVNPTTLNCGHSFCRHCLALWWASSKKTECPECREKWEGFPKVS
B7: HLTF RING domain (UniProt Q14527); chain LILSSGSDEECAICLDSLTVPVITHCAHVFCKPCICQVIQNEQPHAKCPLCRNDIHEDNLLE
B8: RNF103 RING domain (UniProt O00237); chain WPADMLHCTECVVCLENFENGCLLMGLPCGHVFHQNCIVMWLAGGRHCCPVCRWPSYKKKQPY
Residues (chain): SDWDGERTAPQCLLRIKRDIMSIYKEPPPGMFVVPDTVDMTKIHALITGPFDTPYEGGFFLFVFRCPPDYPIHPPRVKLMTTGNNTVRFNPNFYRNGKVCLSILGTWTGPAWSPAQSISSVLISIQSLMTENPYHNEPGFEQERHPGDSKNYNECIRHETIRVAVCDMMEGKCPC
Molecule | lacZ reporter activity
EIKEYKARLTCPCCNTRKKDAVLTKCFHVFCFECVRGRYEARQRKCPKCNAAFGAHDFHR (RNF40 RING domain (UniProt O75150)) | 0
B1 (ZNRF4 RING domain) | 0
B2 (TRIM11 RING domain) | 0
FAEQPSVKLCCQLCCSVFKDPVITTCGHTFCRRCALKSEKCPVDNVKLTVVVNNI (TRAF7 RING domain (UniProt Q6Q0C0)) | 0
B3 (TRIM41 RING domain) | 0
B4 (NFX1 RING domain) | 0
B5 (ARIH2 RING domain) | 0
B6 (BFAR RING domain) | 0
B7 (HLTF RING domain) | 17100
B8 (RNF103 RING domain) | 7950

Sample 4
Target: Phosphate system positive regulatory protein PHO4, full length, GST-tagged (PHO4, Saccharomyces cerevisiae, UniProt P07270, residues 1-312)
Technique: competition protein-binding microarray
Molecule type: double-stranded DNA, one strand shown
Sample: in vitro
Tested at: 2 µM
Notes: whole 60-bp probe, lowest competitor level
With: Cbf1 competitor, 0.05 µM
Direction: higher = stronger binding
Shared flanks, not repeated: … GTCTTGATTCGCTTGACGCTGCTG
Residues (chain): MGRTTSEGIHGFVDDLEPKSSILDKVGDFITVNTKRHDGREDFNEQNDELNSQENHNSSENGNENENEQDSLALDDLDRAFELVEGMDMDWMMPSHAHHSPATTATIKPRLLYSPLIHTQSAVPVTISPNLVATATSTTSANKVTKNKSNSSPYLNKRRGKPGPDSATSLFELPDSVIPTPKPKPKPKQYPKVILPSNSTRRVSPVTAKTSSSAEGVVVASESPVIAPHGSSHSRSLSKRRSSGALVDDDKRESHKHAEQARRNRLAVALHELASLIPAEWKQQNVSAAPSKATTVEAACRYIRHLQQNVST
Sequence | fluorescence intensity [a.u.]
TATTTATGTTTAATCCACGTTACACCACCAATTATA | 9220
GTTATGGAGATAACACACGTGCCGAGAGGAAAATAG | 19100
CTAACGAAGGTTTGCTGGGTGGGTGACAAGCCAAGT | 3940
CGTACGGCAATAATCCTCGTGCAAAAATCTCTAAGA | 10500
TTGTGGCAATCCGACCACGTCTTGTCTTCTTAACTT | 6330
CTAACGAAGGTTTTTCACGTGGTGTACAAGCCAAGT | 13900
TTGAGGATCATCCAACACGTGCGATAACGTATCGAC | 17000
CTTCTGTAAATTTGGGTGGTGGGTGGACGCGCCCCG | 5030
CAGCCACTGGTGCTAAACGTGCTAAATTCAGAAAGA | 12400
TTTACAATTCCAAACCATGTGATGCTTGTCAGAGGG | 8450
AAAGTAAAATCCCAACACGTGATGGTGTTCGTCTGA | 15500
CATACCCAACCTTGCCAAGTGGGTGAAGATATTTGT | 4220
CGTCCTAGTGATTGTAAAGTGGGTGCCATGAGGAAG | 6430
GTAGCAGATTCCTGGAACGTGCTTTCTCTCGAGGTA | 14700
TGCGCAACAACTTGATGTGTGGGTGTATGTCTAGAA | 6370
GTATCTCATCGCTGGCACGGGCAGTACAGTGCCCTG | 9690
CGTCCTAGTGATTGCGAAGTGGGTGCCATGAGGAAG | 6420
AAATTACTAAGTTGGATGGTGGGTGACGCCGTATGA | 4680
TCACCCTCTCCGACTCACGTGGACCTTGGCGCGGCC | 15700
AAATTACTAAGTTGTCACCCCACTTACCCCGTATGA | 4270
AAACAAATGGCAGTCCATGTGAAAAGCTGAGACAAA | 4580
CTAACGAAGGTTTGGATCGTGGGTGACAAGCCAAGT | 7960

Sample 5
Target: Ras GTPase-activating protein-binding protein 1, full length (G3BP1, Homo sapiens, UniProt Q13283)
UniProt Q13283, sequence (whole entry, looked up): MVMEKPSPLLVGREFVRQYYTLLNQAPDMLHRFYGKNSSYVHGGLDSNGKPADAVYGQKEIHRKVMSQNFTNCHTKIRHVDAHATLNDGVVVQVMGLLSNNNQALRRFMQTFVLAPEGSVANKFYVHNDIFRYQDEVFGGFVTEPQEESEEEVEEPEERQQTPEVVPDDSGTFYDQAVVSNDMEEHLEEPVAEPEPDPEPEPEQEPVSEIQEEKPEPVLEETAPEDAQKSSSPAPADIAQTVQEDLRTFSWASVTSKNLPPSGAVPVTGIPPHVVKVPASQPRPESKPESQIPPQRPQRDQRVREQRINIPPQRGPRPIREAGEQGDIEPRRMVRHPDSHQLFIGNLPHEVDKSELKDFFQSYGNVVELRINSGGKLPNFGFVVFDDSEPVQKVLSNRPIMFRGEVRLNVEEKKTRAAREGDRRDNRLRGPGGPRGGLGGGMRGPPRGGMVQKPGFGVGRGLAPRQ
Technique: RNA Bind-n-Seq
Molecule type: RNA
Sample: in vitro
Tested at: 200 nM
Notes: whole 134-nt RNA, ends assumed
With: 150 mM LiCl
Reference: input library
Direction: higher = stronger binding
All molecules: 7-deaza-guanosine replaces G
Shared flanks, not repeated: GGGAGUUCUACAGUCCGACGAUC … UGGAAUUCUCGGGUGUCAAGG
Sequence | log2 enrichment
ACCAUGCAGGUGGGCAUCUUUGGGAAGUGGGGCAAGGGGGGGCUAGGGAGGGGGGUAACACUUUGGGAACAGGUGGUCCCAGGUCGUUUC | -0.0867
UCAAGUCCUGUGCUACACAUCGUAUGUACCGAAUCGGGGCCGGGGCCGGGGCCGGAAAGUAUUAUGUUACGCCGUUCGGAUCUGCACUUC | -0.122
GUCCUGUGCUACACAUCGUAUGUACCGAAUCGGGAAAAAGGGAAAGGGUUUUUUUGGGAAAGUAUUAUGUUACGCCGUUCGGAUCUGCAC | -1.1
AAAAUGCAGGUGGGCAUCUUUGGGAAGUGGGGCAAGGGGGGGAUAGGGAGGGGGGUAACACUUUGGGAACAGGUGGUCCCAGGUCGUUUC | 0.311
UGGGAGGUGGAUUUUGUUUAUUUUUUUAGCUCAUUUCCAGGGCUGGGAAUUUUUUUUUAAUAUGUGUCAUGAAUAAAGUUGUUUUUGAAA | -0.345
CACAGACAACACGCACCCACACAGACACAGAUGGAAGGGGUUGGGAUGGGGACAGGGUGCACAGCAGGGCGGGGUAGGACCCCAGCCCCU | 0.102
CCUGUGCUACACAUCGUAUGUACCGAAUCGGGGUUUUUUUGGUUUUUUUGGUUUUUUUGGGAAAGUAUUAUGUUACGCCGUUCGGAUCUG | 0.647
UGUGCUACACAUCGUAUGUACCGAAUCGGGGAAAAAAAGGGGAAAAAAAGGGGAAAAAGGGGAAAGUAUUAUGUUACGCCGUUCGGAUCU | 0.675
CUUUGUAAUGGGAACUGCCUCUUUCCUGUUGUUGUUAAUGAAAAUGUCAGAAACCAGUUAUGUGAAUGAUCUCUCUGAAUCCUAAGGGCU | -0.55
UAACUUUAGAGGAGCAUCUGAUGGAUAUGGCAGUGGACGUGGAUUUGGGGAUGGCUAUAAUGGGUAUGGAGGAGGACCUGGAGGUGGCAA | -0.231
UGUGGCCGCAGGACGAGUACAUCGUGGAGUACUCACUAGAGUAUGGCUUCCUUCGCCUGUCGCAGGCCACCCGCCAGCGCCUGAGCAUCC | 0.928

Excerpt of the above (sample 1):
Sequence | median fluorescence [a.u.]
GAGGCCATGTAAACAACGCCTCCTGGCGTTGTTTACATGGCCTCACACTC (5mC at 36) | 4600
GAGGCCATGTAACCAAGGCCTCCTGGCCTTGGTTACATGGCCTCACACTC (5mC at 28) | 3040
GAGGCCATGTAACCAACGCCTCCTGGCGTTGGTTACATGGCCTCACACTC (5mC at 17) | 3170
GAGGCCATGTAACCGACGCCTCCTGGCGTCGGTTACATGGCCTCACACTC (5mC at 14) | 3320
GAGGCCATGCAACGAACGCCTCCTGGCGTTCGTTGCATGGCCTCACACTC (5mC at 13 31) | 3320
GAGGCCACGCAAACAACGCCTCCTGGCGTTGTTTGCGTGGCCTCACACTC (5mC at 36) | 3660
GAGGCCCGGTAACCAACGCCTCCTGGCGTTGGTTACCGGGCCTCACACTC (5mC at 7) | 3370
GAGGCCATGCAAACACGGCCTCCTGGCCGTGTTTGCATGGCCTCACACTC (5mC at 16) | 3360
GAGGCCATGTCAACAACGCCTCCTGGCGTTGTTGACATGGCCTCACACTC | 4180
GAGGCCATGTAACCCGCGCCTCCTGGCGCGGGTTACATGGCCTCACACTC (5mC at 15) | 3300
GAGGCCATGTAAACAGCGCCTCCTGGCGCTGTTTACATGGCCTCACACTC | 4140
